Results collected from several papers.
Several values in a cell are separate wells, animals, samples, runs or records. ± gives the spread as reported.
DDR2: Discoidin domain-containing receptor 2 (DDR2, Homo sapiens, UniProt Q16832)
UniProt Q16832, sequence (whole entry, looked up): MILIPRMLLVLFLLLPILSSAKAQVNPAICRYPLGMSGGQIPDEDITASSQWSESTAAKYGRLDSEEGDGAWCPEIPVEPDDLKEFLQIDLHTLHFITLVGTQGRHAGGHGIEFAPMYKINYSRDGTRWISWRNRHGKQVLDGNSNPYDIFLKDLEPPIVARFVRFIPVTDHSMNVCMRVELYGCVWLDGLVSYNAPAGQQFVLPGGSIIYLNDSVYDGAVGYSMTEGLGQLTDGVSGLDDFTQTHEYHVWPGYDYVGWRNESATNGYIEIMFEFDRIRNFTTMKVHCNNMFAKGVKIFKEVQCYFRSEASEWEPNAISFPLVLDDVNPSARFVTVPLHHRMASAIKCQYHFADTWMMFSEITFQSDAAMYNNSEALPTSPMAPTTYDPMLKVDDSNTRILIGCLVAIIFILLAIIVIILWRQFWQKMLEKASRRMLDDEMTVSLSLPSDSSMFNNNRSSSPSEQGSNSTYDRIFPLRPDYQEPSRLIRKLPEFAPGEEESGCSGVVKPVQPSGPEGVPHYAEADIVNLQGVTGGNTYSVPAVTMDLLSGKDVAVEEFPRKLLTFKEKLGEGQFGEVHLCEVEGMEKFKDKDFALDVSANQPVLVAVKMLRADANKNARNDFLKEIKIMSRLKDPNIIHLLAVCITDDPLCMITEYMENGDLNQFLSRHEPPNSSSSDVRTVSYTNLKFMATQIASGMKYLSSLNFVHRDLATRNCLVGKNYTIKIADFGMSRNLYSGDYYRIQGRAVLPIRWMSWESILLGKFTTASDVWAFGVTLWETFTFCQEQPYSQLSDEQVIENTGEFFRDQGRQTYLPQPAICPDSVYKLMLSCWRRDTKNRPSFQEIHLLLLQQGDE
CDK4: Cyclin-dependent kinase 4 (CDK4, Homo sapiens, UniProt P11802)
UniProt P11802, sequence (whole entry, looked up): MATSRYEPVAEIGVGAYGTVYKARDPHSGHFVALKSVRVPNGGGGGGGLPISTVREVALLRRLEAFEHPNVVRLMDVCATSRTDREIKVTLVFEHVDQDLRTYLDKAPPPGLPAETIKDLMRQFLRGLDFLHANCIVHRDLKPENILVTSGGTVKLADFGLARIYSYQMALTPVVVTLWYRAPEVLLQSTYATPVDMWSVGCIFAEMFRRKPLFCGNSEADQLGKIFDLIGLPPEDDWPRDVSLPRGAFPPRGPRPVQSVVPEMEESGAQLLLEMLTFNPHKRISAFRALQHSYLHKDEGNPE
VKORC1: Vitamin K epoxide reductase complex subunit 1 (VKORC1, Homo sapiens, UniProt Q9BQB6)
UniProt Q9BQB6, sequence (whole entry, looked up): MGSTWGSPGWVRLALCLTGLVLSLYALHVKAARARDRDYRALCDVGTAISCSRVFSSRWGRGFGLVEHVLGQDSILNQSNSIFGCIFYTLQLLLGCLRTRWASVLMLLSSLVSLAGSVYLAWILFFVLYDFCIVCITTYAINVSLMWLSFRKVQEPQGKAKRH
Gria2: Glutamate receptor 2 (Gria2, Rattus norvegicus, UniProt P19491)
UniProt P19491, sequence (whole entry, looked up): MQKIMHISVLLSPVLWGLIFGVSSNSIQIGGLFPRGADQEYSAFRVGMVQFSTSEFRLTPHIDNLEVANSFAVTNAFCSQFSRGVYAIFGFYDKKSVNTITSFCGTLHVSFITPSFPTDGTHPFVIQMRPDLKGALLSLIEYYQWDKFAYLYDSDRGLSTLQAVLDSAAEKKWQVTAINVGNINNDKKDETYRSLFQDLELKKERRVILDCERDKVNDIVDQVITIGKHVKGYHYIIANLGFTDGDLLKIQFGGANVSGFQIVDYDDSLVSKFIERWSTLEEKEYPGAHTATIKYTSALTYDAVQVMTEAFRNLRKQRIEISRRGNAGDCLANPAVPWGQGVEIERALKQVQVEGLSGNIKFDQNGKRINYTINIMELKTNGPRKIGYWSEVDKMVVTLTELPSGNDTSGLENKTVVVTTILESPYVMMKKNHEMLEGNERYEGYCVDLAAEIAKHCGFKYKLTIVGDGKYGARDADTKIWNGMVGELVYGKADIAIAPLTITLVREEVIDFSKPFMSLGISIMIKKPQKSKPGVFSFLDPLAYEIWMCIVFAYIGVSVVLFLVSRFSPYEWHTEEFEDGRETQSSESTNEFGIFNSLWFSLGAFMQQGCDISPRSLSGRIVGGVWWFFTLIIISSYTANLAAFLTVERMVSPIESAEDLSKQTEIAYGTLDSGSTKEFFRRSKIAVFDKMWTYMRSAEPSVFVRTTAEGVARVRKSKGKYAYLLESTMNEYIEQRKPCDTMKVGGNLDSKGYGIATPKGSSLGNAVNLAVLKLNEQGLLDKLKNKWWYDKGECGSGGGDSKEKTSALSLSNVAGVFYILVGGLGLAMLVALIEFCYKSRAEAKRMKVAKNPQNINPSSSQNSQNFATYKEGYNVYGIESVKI
SIRT5: NAD-dependent protein deacylase sirtuin-5, mitochondrial (SIRT5, Homo sapiens, UniProt Q9NXA8)
UniProt Q9NXA8, sequence (whole entry, looked up): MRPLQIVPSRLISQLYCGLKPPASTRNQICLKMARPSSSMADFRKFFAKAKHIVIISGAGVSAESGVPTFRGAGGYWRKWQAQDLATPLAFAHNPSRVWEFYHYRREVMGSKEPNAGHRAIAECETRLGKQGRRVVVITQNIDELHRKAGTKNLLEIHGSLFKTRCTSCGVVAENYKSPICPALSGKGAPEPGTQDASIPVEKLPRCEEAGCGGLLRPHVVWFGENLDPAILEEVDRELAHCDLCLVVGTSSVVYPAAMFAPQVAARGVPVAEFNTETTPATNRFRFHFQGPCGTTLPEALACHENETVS
HDAC11: Histone deacetylase 11 (HDAC11, Homo sapiens, UniProt Q96DB2)
UniProt Q96DB2, sequence (whole entry, looked up): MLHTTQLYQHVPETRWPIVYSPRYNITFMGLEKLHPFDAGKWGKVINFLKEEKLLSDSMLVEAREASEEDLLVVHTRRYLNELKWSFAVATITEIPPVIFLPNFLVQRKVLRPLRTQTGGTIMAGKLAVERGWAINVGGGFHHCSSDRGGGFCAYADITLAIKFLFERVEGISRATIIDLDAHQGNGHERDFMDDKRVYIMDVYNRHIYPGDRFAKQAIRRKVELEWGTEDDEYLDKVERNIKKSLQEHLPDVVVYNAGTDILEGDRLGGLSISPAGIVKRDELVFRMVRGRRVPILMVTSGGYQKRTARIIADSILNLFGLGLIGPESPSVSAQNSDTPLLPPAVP
UniProt P23743, sequence (whole entry, looked up): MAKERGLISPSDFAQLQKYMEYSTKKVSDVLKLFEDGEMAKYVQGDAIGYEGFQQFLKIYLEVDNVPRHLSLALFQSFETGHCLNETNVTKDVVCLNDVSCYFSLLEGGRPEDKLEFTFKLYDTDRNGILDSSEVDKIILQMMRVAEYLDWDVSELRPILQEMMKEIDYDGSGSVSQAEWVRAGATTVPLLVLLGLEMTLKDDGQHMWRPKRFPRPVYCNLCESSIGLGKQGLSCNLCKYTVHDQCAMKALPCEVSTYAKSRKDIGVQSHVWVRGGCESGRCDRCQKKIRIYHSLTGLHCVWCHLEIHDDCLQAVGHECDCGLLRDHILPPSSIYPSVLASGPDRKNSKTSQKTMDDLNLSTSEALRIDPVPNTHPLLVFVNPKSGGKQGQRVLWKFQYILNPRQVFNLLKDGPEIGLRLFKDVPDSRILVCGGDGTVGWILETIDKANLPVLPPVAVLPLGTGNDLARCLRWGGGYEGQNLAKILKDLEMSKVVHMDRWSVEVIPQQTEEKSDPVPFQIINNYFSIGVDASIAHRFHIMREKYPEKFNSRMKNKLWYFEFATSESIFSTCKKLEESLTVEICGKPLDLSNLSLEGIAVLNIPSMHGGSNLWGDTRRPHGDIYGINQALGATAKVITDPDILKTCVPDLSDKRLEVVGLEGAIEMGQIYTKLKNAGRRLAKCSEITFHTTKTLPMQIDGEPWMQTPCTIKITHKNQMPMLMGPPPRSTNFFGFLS
UniProt Q96GW9, sequence (whole entry, looked up): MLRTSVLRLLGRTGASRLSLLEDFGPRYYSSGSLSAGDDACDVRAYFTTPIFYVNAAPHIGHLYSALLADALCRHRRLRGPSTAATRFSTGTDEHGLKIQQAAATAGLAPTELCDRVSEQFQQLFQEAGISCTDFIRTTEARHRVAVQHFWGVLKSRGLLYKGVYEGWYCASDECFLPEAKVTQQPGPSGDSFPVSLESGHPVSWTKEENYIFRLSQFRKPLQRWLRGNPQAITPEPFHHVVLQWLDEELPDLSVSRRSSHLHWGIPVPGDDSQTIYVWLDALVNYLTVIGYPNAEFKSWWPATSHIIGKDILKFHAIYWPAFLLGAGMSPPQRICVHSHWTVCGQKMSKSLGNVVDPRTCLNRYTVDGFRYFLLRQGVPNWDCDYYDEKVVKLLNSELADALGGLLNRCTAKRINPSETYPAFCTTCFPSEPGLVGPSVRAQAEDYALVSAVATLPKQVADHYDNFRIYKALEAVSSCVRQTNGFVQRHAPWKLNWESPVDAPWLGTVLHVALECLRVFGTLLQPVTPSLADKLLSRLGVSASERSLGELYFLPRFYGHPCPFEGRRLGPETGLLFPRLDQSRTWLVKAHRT
UniProt P21397, sequence (whole entry, looked up): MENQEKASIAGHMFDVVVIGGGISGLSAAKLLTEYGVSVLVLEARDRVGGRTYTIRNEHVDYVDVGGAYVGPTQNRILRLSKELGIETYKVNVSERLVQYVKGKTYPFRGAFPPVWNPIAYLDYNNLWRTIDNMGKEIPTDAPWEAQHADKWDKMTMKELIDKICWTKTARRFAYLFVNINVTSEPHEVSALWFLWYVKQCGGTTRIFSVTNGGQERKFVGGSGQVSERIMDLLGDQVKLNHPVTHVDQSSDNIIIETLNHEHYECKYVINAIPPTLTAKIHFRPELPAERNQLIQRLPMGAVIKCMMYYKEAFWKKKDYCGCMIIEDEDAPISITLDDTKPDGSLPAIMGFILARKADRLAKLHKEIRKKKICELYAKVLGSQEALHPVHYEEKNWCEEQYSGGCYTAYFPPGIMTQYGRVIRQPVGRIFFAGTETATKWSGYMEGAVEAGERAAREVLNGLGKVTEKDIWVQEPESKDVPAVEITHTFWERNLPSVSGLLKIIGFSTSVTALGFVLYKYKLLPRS
UniProt P80075, sequence (whole entry, looked up): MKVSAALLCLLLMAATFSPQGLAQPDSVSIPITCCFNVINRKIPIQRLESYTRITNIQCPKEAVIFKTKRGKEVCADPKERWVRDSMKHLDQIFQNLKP

| Structure (SMILES) | target | test | test system | setting | IC50 |
| --- | --- | --- | --- | --- | --- |
| O=C(CN1CN(c2ccccc2)C2(CCN(C(=O)c3ccc4[nH]ncc4c3)CC2)C1=O)Nc1ccccn1 | DDR2 | ligand displacement | – | – | 282 nM |
| C[C@@H]1CN(c2cc(=O)n(C)c3ccc(C#N)nc23)[C@@H](C)CN1Cc1ccc(S(=O)(=O)n2cnc(C3CC3)n2)cc1 | DGKA (Homo sapiens, UniProt P23743) | inhibitor, ADP-Glo | – | together with: DAG micelles | 12 nM and ~12 nM |
| O=C1CCC(N2C(=O)c3ccc(N4CCC(C(=O)N5CCC(CCN6CCC(CNC(=O)c7cccc(-c8noc(C(F)(F)F)n8)c7)(c7nc(-c8ccccc8)cs7)CC6)CC5)CC4)cc3C2=O)C(=O)N1 (stereo not shown) | HDAC4 (Homo sapiens, UniProt P56524) | – | – | – | > 10000 nM |
| CC(C)[C@H](NC(=O)[C@@H]1CCCN1C(=O)[C@H](CCCCN)NC(=O)[C@H](Cc1ccccc1)NC(=O)[C@H](Cc1ccccc1)NC(=O)[C@H](CC(=O)O)NC(=O)[C@H](CCC(=O)O)NC(=O)[C@H](Cc1ccc(O)cc1)NC(=O)[C@H](CC(=O)O)NC(=O)[C@H](CCC(=O)O)NC(=O)[C@H](CC(=O)O)NC(=O)[C@@H](N)CCC(=O)O)C(=O)N[C@H](C(=O)N[C@@H](C)C(=O)N[C@@H](Cc1ccc(O)cc1)C(=O)N[C@@H](Cc1ccccc1)C(N)=O)[C@@H](C)O | C-C motif chemokine 8 (CCL8, Homo sapiens, UniProt P80075) | cell migration, inhibitor | THP-1 | together with: CCL8 at EC80 | 459 nM |
| CC(C)(C)n1ncc2c(=O)n(Cc3cccc(F)c3)c(NCc3ccc(F)cn3)nc21 | Cytochrome P450 3A4 (CYP3A4, Homo sapiens, UniProt P08684) | enzyme activity, inhibitor | human liver | – | > 15000 nM |
| CCN(CC)CC(=O)Nc1cccc(-n2cc(-c3ccc4ccc(-c5cn(-c6cccc(NC(=O)CN(CC)CC)c6)nn5)cc4c3)nn2)c1 | Cyclin-dependent kinase 4, with cyclin D1 (CDK4, Homo sapiens, UniProt P11802) | – | – | – | > 10000 nM |
| O=C(Nc1c[nH]nc1C(=O)NC1CCNCC1)c1cc(F)cc(F)c1 | CDKL5 (Homo sapiens, UniProt O76039) | target engagement in cells, BRET | – | – | 3.5 nM |
| COC(=O)CCCCNC(=O)c1ccc(Nc2ncc(F)c(-c3cc(F)c4nc(C)n(C(C)C)c4c3)n2)cc1 | CDK4 | – | – | – | 9 nM |
| COCCNC(=O)Cn1nc2c3ccccc3nc(C)n2c1=O | VKORC1 | carboxylation, inhibitor, ELISA | HEK293 stably expressing | 24 h, together with: vitamin K epoxide 5 µM | > 100000 nM |
| CC(=O)N1c2ccc(-c3ccc(CNC(=O)c4cn5cc(-c6cnc(N)nc6)nc(N6CCOCC6)c5n4)cc3)cc2CC[C@@H]1C | MTOR (Homo sapiens, UniProt P42345) | enzyme activity, inhibitor, radiometric | – | – | > 10000 nM |
| O=C(CN1CN(c2ccccc2)C2(CCN(C(=O)c3ccc4[nH]ncc4c3)CC2)C1=O)N1CCOCC1 | DDR2 | ligand displacement | – | – | 4910 nM |
| Cc1nc2c(F)cc(-c3nc(Nc4ccc(C(=O)NCCCCC(=O)NO)cc4)ncc3F)cc2n1C(C)C | CDK4 | – | – | – | 9 nM |
| CC1CCCN(C(=O)Cn2ncc3cccn3c2=O)C1 (stereo not shown) | VKORC1 | carboxylation, inhibitor, ELISA | HEK293 stably expressing | 24 h, together with: vitamin K epoxide 5 µM | 22500 nM |
| Sc1ncnc2nc[nH]c12 | TAR DNA-binding protein 43, residues 102-269 (TARDBP, Homo sapiens, UniProt Q13148) | protein-RNA binding, inhibitor, fluorescence polarization | – | 40 nM protein, together with: 10 nM RNA | 41700 ± 9600 nM |
| NC(=O)c1cccc(NC(=O)c2cc(-c3ccccc3)n(-c3ccc(Br)cc3)n2)c1 | Genome polyprotein, NS2B-NS3 protease (dengue virus type 2, UniProt P29990) | enzyme activity | – | together with: AMC substrate 50 µM | 14000 nM |
| Cc1nc2c(F)cc(-c3nc(Nc4ccc(NC(=O)CCCCCCC(=O)NO)nc4)ncc3F)cc2n1C(C)C | CDK4 | – | – | – | 2.1 nM |
| Cc1ccc(C(F)(F)CNC(=O)c2cc(Cl)nnc2Oc2cccc(C(F)(F)F)c2)c(C)c1 | serine palmitoyltransferase (Botrytis cinerea, UniProt A0A384JAG3+A0A384JQT2) | – | – | – | 14 ± 2 nM |
| O=C(O)Cc1cc2c(cc1C(=O)c1ccccc1)OCO2 | Gria2 | glutamate-evoked current, inhibitor, whole-cell patch clamp | HEK293T, homomeric receptor | – | 5370 nM |
| N=C(N)NCCC[C@H](NC(=O)[C@H](CCCCNC(=S)NCCC(=O)O)NS(=O)(=O)c1cccc(F)c1)C(=O)NC1CCC1 | SIRT5 | inhibitor, fluorogenic | – | 0 h preincubation, non-tagged enzyme 150 nM, together with: NAD+ 500 µM | 74 ± 5 nM |
| O=C(CN1CN(c2ccccc2)C2(CCN(C(=O)c3ccc4[nH]ncc4n3)CC2)C1=O)NCC(F)(F)F | DDR2 | ligand displacement | – | – | 858 nM |
| O=C(NO)c1coc(-c2ccc(Br)cc2)n1 | hdac10 (Danio rerio, UniProt F1QCV2) | – | – | – | 399 ± 43 nM |
| COC(=O)CCCC(=O)NCc1ccc(Nc2ncc(F)c(-c3cc(F)c4nc(C)n(C(C)C)c4c3)n2)cc1 | CDK4 | – | – | – | 1.2 nM |

| Structure (SMILES) | target | test | test system | setting | IC50 |
| --- | --- | --- | --- | --- | --- |
| COC(=O)Cc1cc2c(cc1C(=O)c1ccccc1Br)OCO2 | Gria2 | glutamate-evoked current, inhibitor, whole-cell patch clamp | HEK293T, homomeric receptor | – | 5250 nM |
| O=C(O)CCNC(=S)NCCCC[C@H](NS(=O)(=O)c1cccc(F)c1)C(=O)N[C@@H](Cc1c[nH]c2ccccc12)C(=O)NC1CCC1 | SIRT5 | enzyme activity, inhibitor | – | – | 53 ± 3 nM |
| C=CC[C@@H]1NC(=O)CCSCc2ccc(cc2)CSC/C=C/CNC(=O)[C@H](CCCCCC(=O)N(O)CCCCCC)NC1=O | HDAC11 | enzyme activity, inhibitor, fluorescence | – | – | 410 nM |
| Cc1nn(-c2cccc(N)c2)c(=O)c2cnc(Nc3ccc(N4CCNCC4)cc3)nc12 | MARK4 (Homo sapiens, UniProt Q96L34) | enzyme activity, inhibitor | – | – | > 10000 nM |
| O=C(O)Cc1cc2c(cc1C(=O)c1cccc(Cl)c1)OCO2 | Gria2 | ion current, patch clamp | – | – | 3910 nM |
| Cc1c(OS(=O)(=O)Oc2ccc3ccccc3c2)cccc1C(=O)NO | HDAC11 | – | – | – | 827 nM |
| CC(C)(COP(=O)(O)OP(=O)(O)OC[C@H]1O[C@@H](n2cnc3c(N)ncnc32)[C@H](O)[C@@H]1OP(=O)(O)O)[C@@H](O)C(=O)NCCC(=O)NCCSCCC(=O)N[C@@H](CO)C(=O)NCC(=O)N[C@@H](CCCNC(=N)N)C(=O)NCC(=O)N[C@@H](CCCCN)C(N)=O | NAA40 (Homo sapiens, UniProt Q86UY6) | enzyme activity, inhibitor, fluorescence | – | – | 92 nM |
| O=C(Cc1ccc(OCc2ccccc2)cc1)NC1(C(=O)O)CCN(C(=O)c2ccc(-c3cccc(Cl)c3)cc2)CC1 | ADORA3 (Homo sapiens, UniProt P0DMS8) | antagonist, GloSensor cAMP | – | – | > 10000 nM |
| O=C(CN1CN(c2ccccc2)C2(CCN(C(=O)c3cc4cn[nH]c4cn3)CC2)C1=O)NCC(F)(F)F | DDR2 | ligand displacement | – | – | 14700 nM |
| O=c1cc(-c2ccc(O)cc2)oc2c1ccc1occc12 | Cyclin-dependent kinase 7, with cyclin H (CDK7, Homo sapiens, UniProt P50613) | enzyme activity, inhibitor, ADP detection | – | – | 1280 nM |
| COC(=O)CCCCCCNC(=O)c1ccc(Nc2ncc(F)c(-c3cc(F)c4nc(C)n(C(C)C)c4c3)n2)cc1 | CDK4 | – | – | – | 2.8 nM |
| OCC1OC(n2cnc3c(NCc4ccc(Br)s4)ncnc32)C(O)C1O (stereo not shown) | ADORA2A (Homo sapiens, UniProt P29274) | ligand displacement, radioligand | – | – | 3030 nM |
| Fc1ccc2[nH]c(NCCCNCc3cc(Cl)cc(Cl)c3)nc2c1 | MARS2 (Homo sapiens, UniProt Q96GW9) | enzyme activity, inhibitor | – | – | 635 nM |
| CC1=CC(C)=[N+]2C1=C(CCCCc1cn(CC(=O)N3CCc4nc(NC(=O)[C@H]5CCN(C#N)C5)sc4C3)nn1)c1c(C)cc(C)n1[B-]2(F)F | UCHL1 (Homo sapiens, UniProt P09936) | enzyme activity, inhibitor, fluorescence | – | with preincubation | 1200 nM |
| COC(=O)CCCCCCCNC(=O)c1ccc(Nc2ncc(F)c(-c3cc(F)c4nc(C)n(C(C)C)c4c3)n2)cc1 | CDK4 | – | – | – | 6.2 nM |
| CCOc1ccc(C(=O)/C=C/c2ccc(C(C)C)cc2)cc1 | MAOA (Homo sapiens, UniProt P21397) | enzyme activity, inhibitor | – | – | 7000 nM |
| NCC1CCN(c2nc(-c3ccncc3)nc3c(C#CCO)cccc23)CC1 | LATS2 (Homo sapiens, UniProt Q9NRM7) | enzyme activity, inhibitor, radiometric | – | – | 7 nM |
| CCCC[C@H](NC(=O)CNC(=O)CNC(C)=O)C(=O)N[C@@H](CS)C(=O)N[C@@H](CS)C(=O)N[C@@H](CCC(=O)O)C(=O)N[C@@H](Cc1c[nH]cn1)C(=O)N[C@H](Cc1ccccc1)C(=O)N[C@@H](CCCNC(=N)N)C(=O)N[C@@H](Cc1c[nH]c2ccccc12)C(=O)N[C@@H](CS)C(=O)N[C@@H](CCCNC(=N)N)C(=O)N1CCC[C@H]1C(N)=O | Mc1r (Mus musculus, UniProt Q01727) | ligand displacement, radioligand | – | – | 2 nM |
| C[C@H](Cn1nnc2ccccc21)NC(=O)Cn1cnc2ccccc2c1=O | VKORC1 | carboxylation, inhibitor, cell-based | – | – | 9000 nM |
| CCOc1cc(CN2CCC3(CC2)CN(c2ccc(C(=O)O)cc2)C(=O)N3)c(C2CC2)cc1C | SSTR5 (Homo sapiens, UniProt P35346, N100V) | cAMP level, agonist, GloSensor | AD293 | N100V mutant, together with: CST17 EC80 and forskolin | 24 nM |
| CN1CCc2cc(Br)c(O)cc2C(c2ccc(NC(=O)CCOCCOCCOCCN=[N+]=[N-])cc2)C1 (stereo not shown) | DRD1 (Homo sapiens, UniProt P21728) | cell-based | – | – | 135 nM |

Some of these lines once more:
| Structure (SMILES) | target | test | test system | setting | IC50 |
| --- | --- | --- | --- | --- | --- |
| CC1=CC(C)=[N+]2C1=C(CCCCc1cn(CC(=O)N3CCc4nc(NC(=O)[C@H]5CCN(C#N)C5)sc4C3)nn1)c1c(C)cc(C)n1[B-]2(F)F | UCHL1 (Homo sapiens, UniProt P09936) | enzyme activity, inhibitor, fluorescence | – | with preincubation | 1200 nM |
| COC(=O)CCCCCCCNC(=O)c1ccc(Nc2ncc(F)c(-c3cc(F)c4nc(C)n(C(C)C)c4c3)n2)cc1 | CDK4 | – | – | – | 6.2 nM |
| CCOc1ccc(C(=O)/C=C/c2ccc(C(C)C)cc2)cc1 | MAOA (Homo sapiens, UniProt P21397) | enzyme activity, inhibitor | – | – | 7000 nM |
| NCC1CCN(c2nc(-c3ccncc3)nc3c(C#CCO)cccc23)CC1 | LATS2 (Homo sapiens, UniProt Q9NRM7) | enzyme activity, inhibitor, radiometric | – | – | 7 nM |
